Results gathered from unrelated publications.
A part holds a random share of what one study measured. Values joined by “and” are separate records of one study, mostly repeats; a detail may differ.
UniProt P21802, sequence (whole entry, looked up): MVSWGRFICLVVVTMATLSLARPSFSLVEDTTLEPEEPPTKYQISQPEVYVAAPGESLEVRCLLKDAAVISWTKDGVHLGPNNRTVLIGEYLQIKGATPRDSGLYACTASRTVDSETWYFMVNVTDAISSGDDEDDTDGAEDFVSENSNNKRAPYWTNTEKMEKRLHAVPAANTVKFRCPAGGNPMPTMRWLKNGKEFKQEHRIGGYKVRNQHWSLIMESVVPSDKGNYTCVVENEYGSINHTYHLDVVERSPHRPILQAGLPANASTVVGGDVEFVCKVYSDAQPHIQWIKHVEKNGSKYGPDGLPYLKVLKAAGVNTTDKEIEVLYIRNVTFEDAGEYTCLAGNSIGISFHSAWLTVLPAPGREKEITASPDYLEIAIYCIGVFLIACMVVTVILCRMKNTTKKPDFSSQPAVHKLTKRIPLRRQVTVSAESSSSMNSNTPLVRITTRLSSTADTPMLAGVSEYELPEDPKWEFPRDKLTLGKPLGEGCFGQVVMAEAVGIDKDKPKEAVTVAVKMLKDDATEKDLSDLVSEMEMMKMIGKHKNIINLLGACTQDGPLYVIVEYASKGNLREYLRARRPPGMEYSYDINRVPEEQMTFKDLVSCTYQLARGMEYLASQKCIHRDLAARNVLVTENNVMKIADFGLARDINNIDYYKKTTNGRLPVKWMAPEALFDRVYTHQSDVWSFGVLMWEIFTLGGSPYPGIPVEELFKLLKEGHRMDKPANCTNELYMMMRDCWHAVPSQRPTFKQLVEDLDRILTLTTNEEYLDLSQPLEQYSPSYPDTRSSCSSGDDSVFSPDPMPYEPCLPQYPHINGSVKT
UniProt Q9HAZ1, sequence (whole entry, looked up): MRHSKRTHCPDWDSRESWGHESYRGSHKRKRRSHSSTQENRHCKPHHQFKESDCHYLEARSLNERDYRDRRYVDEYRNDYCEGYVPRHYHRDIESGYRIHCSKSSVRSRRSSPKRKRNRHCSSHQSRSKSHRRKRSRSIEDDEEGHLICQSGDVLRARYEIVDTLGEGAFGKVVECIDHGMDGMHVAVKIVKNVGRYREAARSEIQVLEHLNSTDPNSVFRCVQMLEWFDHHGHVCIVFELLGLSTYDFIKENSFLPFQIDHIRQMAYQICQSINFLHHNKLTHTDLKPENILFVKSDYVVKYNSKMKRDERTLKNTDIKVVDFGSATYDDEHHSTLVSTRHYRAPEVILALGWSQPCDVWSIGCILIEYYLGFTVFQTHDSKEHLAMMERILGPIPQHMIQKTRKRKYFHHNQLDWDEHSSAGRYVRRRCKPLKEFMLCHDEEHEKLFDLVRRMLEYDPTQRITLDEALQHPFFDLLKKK
UniProt Q9C098, sequence (whole entry, looked up): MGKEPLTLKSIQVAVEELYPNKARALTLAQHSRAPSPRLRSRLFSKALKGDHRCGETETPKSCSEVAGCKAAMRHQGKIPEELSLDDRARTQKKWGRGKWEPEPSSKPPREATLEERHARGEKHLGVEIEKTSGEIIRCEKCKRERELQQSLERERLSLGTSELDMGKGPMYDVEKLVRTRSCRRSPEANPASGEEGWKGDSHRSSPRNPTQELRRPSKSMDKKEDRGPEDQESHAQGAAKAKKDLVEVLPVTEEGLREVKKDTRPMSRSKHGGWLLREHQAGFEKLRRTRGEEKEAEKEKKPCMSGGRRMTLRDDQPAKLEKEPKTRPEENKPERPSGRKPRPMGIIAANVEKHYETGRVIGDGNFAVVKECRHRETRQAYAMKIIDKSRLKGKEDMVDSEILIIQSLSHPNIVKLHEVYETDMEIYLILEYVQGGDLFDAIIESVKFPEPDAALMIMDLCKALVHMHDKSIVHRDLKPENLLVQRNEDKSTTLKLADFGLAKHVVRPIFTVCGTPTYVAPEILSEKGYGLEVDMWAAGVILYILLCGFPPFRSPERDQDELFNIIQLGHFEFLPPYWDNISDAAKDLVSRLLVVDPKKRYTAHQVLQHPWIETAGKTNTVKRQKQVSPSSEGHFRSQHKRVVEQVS
UniProt Q16620, sequence (whole entry, looked up): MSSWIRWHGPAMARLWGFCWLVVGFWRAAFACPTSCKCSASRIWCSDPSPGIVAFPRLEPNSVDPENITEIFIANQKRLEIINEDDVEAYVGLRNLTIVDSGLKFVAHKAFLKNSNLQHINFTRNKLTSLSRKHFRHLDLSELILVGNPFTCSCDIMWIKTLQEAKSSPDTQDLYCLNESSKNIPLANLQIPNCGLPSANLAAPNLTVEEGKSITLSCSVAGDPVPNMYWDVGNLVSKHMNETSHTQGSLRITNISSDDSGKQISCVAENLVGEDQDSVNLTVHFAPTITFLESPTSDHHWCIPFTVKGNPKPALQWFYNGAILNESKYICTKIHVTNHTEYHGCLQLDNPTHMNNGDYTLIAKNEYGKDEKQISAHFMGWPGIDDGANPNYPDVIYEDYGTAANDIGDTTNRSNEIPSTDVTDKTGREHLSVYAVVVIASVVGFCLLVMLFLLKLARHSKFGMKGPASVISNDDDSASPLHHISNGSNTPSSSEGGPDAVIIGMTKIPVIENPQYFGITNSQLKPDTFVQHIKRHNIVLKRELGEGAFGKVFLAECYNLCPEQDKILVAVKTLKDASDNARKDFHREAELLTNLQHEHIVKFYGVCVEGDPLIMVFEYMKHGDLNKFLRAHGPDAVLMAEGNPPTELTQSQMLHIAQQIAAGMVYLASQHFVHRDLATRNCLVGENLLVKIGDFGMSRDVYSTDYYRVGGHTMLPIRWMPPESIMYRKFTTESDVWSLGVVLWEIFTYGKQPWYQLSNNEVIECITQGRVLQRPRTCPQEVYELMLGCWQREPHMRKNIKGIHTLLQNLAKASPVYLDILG
UniProt P10721, sequence (whole entry, looked up): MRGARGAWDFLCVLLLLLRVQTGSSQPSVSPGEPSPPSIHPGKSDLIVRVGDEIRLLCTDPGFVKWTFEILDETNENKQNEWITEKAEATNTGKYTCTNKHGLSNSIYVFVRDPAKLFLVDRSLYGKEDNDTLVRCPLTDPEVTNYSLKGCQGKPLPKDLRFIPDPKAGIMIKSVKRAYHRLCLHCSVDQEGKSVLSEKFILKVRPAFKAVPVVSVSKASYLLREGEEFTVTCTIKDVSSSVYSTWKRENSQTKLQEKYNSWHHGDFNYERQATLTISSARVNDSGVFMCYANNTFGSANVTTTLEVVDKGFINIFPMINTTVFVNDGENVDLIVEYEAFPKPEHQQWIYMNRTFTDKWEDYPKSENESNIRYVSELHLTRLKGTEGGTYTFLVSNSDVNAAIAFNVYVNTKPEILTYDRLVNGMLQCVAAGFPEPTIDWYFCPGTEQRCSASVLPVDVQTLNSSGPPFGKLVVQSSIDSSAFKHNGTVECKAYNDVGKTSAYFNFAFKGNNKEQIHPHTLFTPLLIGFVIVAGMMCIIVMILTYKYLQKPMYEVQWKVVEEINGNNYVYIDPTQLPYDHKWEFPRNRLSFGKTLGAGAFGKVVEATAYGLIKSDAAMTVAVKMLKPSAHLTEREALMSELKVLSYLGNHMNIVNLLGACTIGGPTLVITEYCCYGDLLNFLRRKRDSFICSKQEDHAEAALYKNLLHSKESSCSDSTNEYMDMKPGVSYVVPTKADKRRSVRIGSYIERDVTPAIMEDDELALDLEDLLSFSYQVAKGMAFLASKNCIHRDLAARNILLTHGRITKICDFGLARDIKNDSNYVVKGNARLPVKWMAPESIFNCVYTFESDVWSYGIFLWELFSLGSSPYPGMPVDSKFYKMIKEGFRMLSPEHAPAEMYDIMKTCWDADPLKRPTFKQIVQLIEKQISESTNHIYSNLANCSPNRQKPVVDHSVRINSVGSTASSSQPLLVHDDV
UniProt Q9NYY3, sequence (whole entry, looked up): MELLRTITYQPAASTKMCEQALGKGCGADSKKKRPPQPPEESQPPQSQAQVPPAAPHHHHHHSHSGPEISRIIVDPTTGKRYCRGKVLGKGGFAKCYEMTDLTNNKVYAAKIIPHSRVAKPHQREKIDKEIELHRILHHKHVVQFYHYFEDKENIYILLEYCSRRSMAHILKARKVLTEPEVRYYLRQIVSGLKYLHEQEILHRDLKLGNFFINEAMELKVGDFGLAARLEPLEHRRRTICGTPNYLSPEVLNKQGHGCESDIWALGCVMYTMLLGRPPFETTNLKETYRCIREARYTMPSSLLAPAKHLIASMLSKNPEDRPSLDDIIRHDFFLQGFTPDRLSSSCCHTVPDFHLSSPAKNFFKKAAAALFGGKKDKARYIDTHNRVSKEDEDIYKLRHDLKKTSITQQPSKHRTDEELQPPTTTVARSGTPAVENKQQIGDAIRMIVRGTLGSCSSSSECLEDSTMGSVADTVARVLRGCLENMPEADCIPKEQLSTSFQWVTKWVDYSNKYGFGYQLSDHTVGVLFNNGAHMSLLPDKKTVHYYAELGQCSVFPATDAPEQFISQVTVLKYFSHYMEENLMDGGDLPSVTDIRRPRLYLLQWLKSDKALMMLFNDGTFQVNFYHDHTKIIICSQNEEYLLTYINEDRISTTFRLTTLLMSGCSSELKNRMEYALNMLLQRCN

Sample 1 — technique: protein-binding microarray; molecule type: double-stranded DNA, one strand shown; medium: in vitro; tested at: 2540 nM top; setting: 60-bp whole probe; added: salmon DNA 0.4 mg/ml; reference: random background probes; direction: higher = stronger binding; constant ends, left off below: GCCTAGCAC … GTCTTGATTCGCTTGACGCTGCTG
Target: Interferon regulatory factor 3, full length, phosphomimetic (IRF3, Homo sapiens, UniProt Q14653, residues 1-427, S386D/S396D/S398D/S402D/T404D/S405D)
Construct (chain): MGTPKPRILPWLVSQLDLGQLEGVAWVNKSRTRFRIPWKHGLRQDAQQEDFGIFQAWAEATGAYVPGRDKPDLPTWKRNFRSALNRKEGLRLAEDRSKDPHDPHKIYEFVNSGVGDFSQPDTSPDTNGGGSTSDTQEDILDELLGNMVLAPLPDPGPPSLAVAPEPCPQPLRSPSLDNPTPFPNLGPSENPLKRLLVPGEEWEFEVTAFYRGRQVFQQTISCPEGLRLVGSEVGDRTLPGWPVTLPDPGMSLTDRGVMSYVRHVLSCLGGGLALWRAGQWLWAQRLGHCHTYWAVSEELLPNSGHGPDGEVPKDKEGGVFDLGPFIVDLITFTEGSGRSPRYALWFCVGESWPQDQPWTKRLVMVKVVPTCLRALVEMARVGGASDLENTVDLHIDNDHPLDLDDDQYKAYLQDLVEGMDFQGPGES
Strand	fitted relative affinity [z-score]
GACGGGTTCCTTCTCCTGACGTGCTAG	4.3
TTAGGTTTCCTCATCCTTTAGTGCTAG	4.05
GACGATATCGGGAGTGGAGACGTGCTA	-0.0277
GACCATATCGGGTTTCGAGACGTGCTA	1.87
GACGGTCTCCTTCTCGTGACGTGCTAG	4.37
TTAGGTATCGACTATCGTTTAGTGCTA	0.436
GACGGACTGGGGTTTCCGGACGTGCTA	0.582
TCACCTTTTAATTTTTAACTGTGCTAG	3.33

Sample 2 — cell line: Huh-7; tested at: 10 µM; time: 24 h
SMILES	viability
NC[C@H](O)c1ccc(O)c(O)c1	102%
Cc1cc(C2CCCCC2)n(O)c(=O)c1	56.2%
CN(Cc1cnc2nc(N)nc(N)c2n1)c1ccc(C(=O)NC(CCC(=O)O)C(=O)O)cc1 (racemic)	53.2%
CCOC(=O)[C@H](CCc1ccccc1)N[C@@H](C)C(=O)N1CCC[C@H]1C(=O)O	89.3%
CCn1nc(C(=O)O)c(=O)c2cc3c(cc21)OCO3	103%
CCC1(c2ccccc2)C(=O)NCNC1=O	99.7%

Sample 3 — cell line: mouse MPNST tumor cells; technique: high-content immunofluorescence imaging; refers to: nuclear SOX9; tested at: 10 µM; time: 12 h; setting: mean of 2 replicates; reference: DMSO control; direction: higher = more nuclear SOX9
SMILES	nuclear SOX9 intensity
CC(C)(C)NC[C@H](O)COc1nsnc1N1CCOCC1	113 % of DMSO
O=C(Nc1ccc(S(=O)(=O)C(F)(F)F)cc1)C1=CCN(c2ncccc2C(F)(F)F)CC1	149 % of DMSO
CC(=O)N(C)c1cccc(-c2ccc3nnc(C)n3n2)c1	100 % of DMSO
O=C(Nc1ccc([N+](=O)[O-])cc1Cl)c1cc(Cl)ccc1O	112 % of DMSO and 103 % of DMSO
CC[C@@H]1C(=O)OC[C@@H]1Cc1cncn1C	106 % of DMSO and 84.8 % of DMSO

Sample 4 — observed: enzyme activity; action: inhibitor; tested at: 0.5 µM; reference: control
Target: Serine/threonine-protein kinase PLK1 (PLK1, Homo sapiens, UniProt P53350)
UniProt P53350, sequence (whole entry, looked up): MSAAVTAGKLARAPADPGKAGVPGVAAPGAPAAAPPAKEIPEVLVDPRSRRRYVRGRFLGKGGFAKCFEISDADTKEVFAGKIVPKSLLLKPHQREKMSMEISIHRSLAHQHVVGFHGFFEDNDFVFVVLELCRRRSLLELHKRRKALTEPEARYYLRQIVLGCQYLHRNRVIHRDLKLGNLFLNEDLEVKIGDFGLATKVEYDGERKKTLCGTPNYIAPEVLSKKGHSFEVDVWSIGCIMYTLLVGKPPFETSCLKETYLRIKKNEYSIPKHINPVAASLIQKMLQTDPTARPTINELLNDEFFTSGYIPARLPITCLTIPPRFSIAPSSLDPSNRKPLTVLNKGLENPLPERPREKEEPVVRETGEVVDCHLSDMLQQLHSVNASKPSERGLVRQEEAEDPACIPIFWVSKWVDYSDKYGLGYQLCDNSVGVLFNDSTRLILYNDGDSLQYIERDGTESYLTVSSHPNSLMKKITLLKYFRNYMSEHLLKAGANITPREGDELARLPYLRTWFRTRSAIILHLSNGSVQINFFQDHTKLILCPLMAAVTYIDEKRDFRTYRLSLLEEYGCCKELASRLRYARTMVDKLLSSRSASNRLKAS
Structure (SMILES)	remaining activity
COc1cc2ncnc(Nc3cccc(Cl)c3)c2cc1OC	105%
O=c1cc(-c2cccc3c2Sc2ccccc2S3)oc(N2CCOCC2)c1	102%
c1ccc(-c2[nH]ncc2-c2ccnc3ccccc23)nc1	102%
c1ccc(-c2cnc(Nc3ccc(OCCN4CCCC4)cc3)s2)cc1	101%
Nc1cccc(-c2cc3c(Oc4cccc(O)c4)ncnc3[nH]2)c1	104%

Sample 5 — observed: cell-free assay; technique: competition with immobilised ligand; tested at: 1 µM
SMILES: CC(=O)N1CCC(c2ccc(C(=O)NC3=NCCN3)cc2C(F)(F)F)CC1
target	remaining binding [%]
BMX (Homo sapiens, UniProt P51813)	100
NTRK2 (Homo sapiens, UniProt Q16620)	100
TNK2 (Homo sapiens, UniProt Q07912)	100
KIT (Homo sapiens, UniProt P10721)	100
PIKFYVE (Homo sapiens, UniProt Q9Y2I7)	88
EGFR (Homo sapiens, UniProt P00533, del752-759)	100
MAP2K2 (Homo sapiens, UniProt P36507)	100
CLK4 (Homo sapiens, UniProt Q9HAZ1)	100
PLK2 (Homo sapiens, UniProt Q9NYY3)	80
DCLK3 (Homo sapiens, UniProt Q9C098)	100
PIK3CD (Homo sapiens, UniProt O00329)	100
DYRK1A (Homo sapiens, UniProt Q13627)	74
FGFR2 (Homo sapiens, UniProt P21802)	86
EPHB1 (Homo sapiens, UniProt P54762)	100
SRMS (Homo sapiens, UniProt Q9H3Y6)	89
Tyrosine-protein kinase ABL1, phosphorylated (ABL1, Homo sapiens, UniProt P00519, M351T)	100
NEK11 (Homo sapiens, UniProt Q8NG66)	100
Ribosomal protein S6 kinase alpha-2, C-terminal kinase domain (RPS6KA2, Homo sapiens, UniProt Q15349)	83

Mixed results
Structure (SMILES)	host	dose	setting	added	measurement	result
CC(C)n1cnc(-c2ccc(F)cc2)c1-c1ncc(C(=O)Nc2ccc(N3CCN(C)CC3)cc2)[nH]1	IPF patients	30 mg once daily	adverse event	standard of care	any adverse event incidence	63.6%

Excerpt of the above (sample 2):
SMILES	viability
Cc1cc(C2CCCCC2)n(O)c(=O)c1	56.2%
CN(Cc1cnc2nc(N)nc(N)c2n1)c1ccc(C(=O)NC(CCC(=O)O)C(=O)O)cc1 (racemic)	53.2%
CCOC(=O)[C@H](CCc1ccccc1)N[C@@H](C)C(=O)N1CCC[C@H]1C(=O)O	89.3%
CCn1nc(C(=O)O)c(=O)c2cc3c(cc21)OCO3	103%
CCC1(c2ccccc2)C(=O)NCNC1=O	99.7%
